Results collected from several papers.
Parts stem from different laboratories: compare values within a part only. Positions count from the first letter of the parent shown.

Sample 1 — technique: RNA Bind-n-Seq; molecule type: RNA; matrix: in vitro; concentration: 365 nM; reference: no-protein control; reading: higher = stronger binding
Target: RNA binding protein fox-1 homolog 2, RRM domain, GST-SBP tag (RBFOX2, Homo sapiens, UniProt O43251-10, residues 100-194)
Setting: natural RNA segment, single round, ends assumed
Residues (chain): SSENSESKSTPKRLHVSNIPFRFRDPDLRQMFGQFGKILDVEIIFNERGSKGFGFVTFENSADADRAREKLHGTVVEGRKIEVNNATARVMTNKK
| Sequence | RBNS enrichment (R) |
| --- | --- |
| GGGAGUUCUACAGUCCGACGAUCCAUGCCUGGGAAGAGGUCCUCAGUGUGAGUUGGGGUCAAACUUGGGCUCCAAGCUGCUUGAGGGGGUCAACCUUGGACCAAAGUUGCCUUAAGCCCCAAGUAUAAAAGAGUGGAAUUCUCGGGUGCCAA | 0.411 |
| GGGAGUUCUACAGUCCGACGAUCGUUGGGUGAAACAGAUUGUCCUAUCACAAAGCAGAAUUCAACAAAGUUAAAAUUUAAGAUAAGGUUUAAAAAGCUUUAUUCCUGUUUACAAUUUGGGAUGAGAAGCAGGCUGGAAUUCUCGGGUGCCAA | 1.17 |
| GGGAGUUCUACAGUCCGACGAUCGCUGGAAAUUCAUCACAACCUGAGGCCCAGGAUCUGCUCUGUGCCGGUCCUCUGGGCAGUGUGGGGUGCAGAAUGGGGUGCCUAGGCCUGAGCGUUGCCUGGAGCCUAGGUGGAAUUCUCGGGUGCCAA | 0.333 |
| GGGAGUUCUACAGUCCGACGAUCGUUUUAACGAUUUGUUUCUCCUGCUCCUCUUCUGUCAGACCUGACCCCACACAAACCUGUCCCCUCGGUUGUGUUGAAGUCCCCUGGACAGUGGGCAGGGGUGGCAGAGGUGGAAUUCUCGGGUGCCAA | 0.283 |
| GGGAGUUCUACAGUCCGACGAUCAAAAGGAAGACGAAGAGUUUGGAGCACCUCUCCCUAGCAUCCUCUCAGCUGGAGAGGCAGCAUUGGAUCCCCAUGCCGCACACGGGGAUGGGAUGGGAGCAGAAGCCCAUUGGAAUUCUCGGGUGCCAA | 0.288 |
| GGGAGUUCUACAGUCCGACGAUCAGUCUGAGUUUACCGUCUGAAUGUAAAGUUCCGUGUUGUCCGCUCACGACGGAAGUGAAGAAGAUACUGCAUUCAAGUGUUUUUUGUAAAAGUUUGUCAUGGUGAAUAACUGGAAUUCUCGGGUGCCAA | 0.483 |
| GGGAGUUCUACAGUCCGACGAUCGGUUUUUAAAAUAAGGUUUUCUAGUUUUGAGAGUGUGCACUUCACACAGGGGAAUGGGGUUACUUCUGUCUGAUCCUGGGCCUUUCUUUCAUCCCAAAUGACAAGGAAUGUGGAAUUCUCGGGUGCCAA | 0.612 |
| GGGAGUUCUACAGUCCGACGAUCCCGGCCUUCUCUUCCGACAGGAUGCACACUUGUGGACCACAACCCUAAGGUCUUGUGCCAGCAUCUACCCACACCUGGUUCUGUUCACUGUGGUCUGCCCACACCUGUCUUGGAAUUCUCGGGUGCCAA | 0.919 |

Sample 2 — technique: protein binding microarray; molecule type: double-stranded DNA, one strand shown; matrix: in vitro; concentration: not given; reference: not given; reading: higher = stronger binding
Target: Histone acetyltransferase KAT6A, winged helix 1, GST fusion (KAT6A, Homo sapiens, UniProt Q92794, residues 1-85)
Setting: 8-mer, flanks averaged, mean of 2 arrays, mostly near background
Residues (chain): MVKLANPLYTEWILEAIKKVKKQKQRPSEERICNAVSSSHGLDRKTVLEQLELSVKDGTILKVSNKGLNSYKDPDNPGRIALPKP
| Sequence | E-score |
| --- | --- |
| CAGACTCG | -0.107 |
| TCGTCGAA | -0.206 |
| GTCCCGAA | 0.0113 |
| AATCTCTC | -0.0722 |
| GTACGTCA | 0.0128 |
| GTACTTTA | -0.0941 |
| ATTGCCAC | -0.174 |
| AGCCTCGC | 0.134 |
| AGACCCTG | -0.347 |
| AACCTAAT | 0.0697 |
| CTGTTTCA | -0.196 |
| AGGCCACT | -0.0643 |
| ACTAGTCG | -0.099 |
| CGTGTGTA | 0.0409 |
| GCCTCAAC | -0.193 |
| CGATACTC | 0.0558 |
| CCCTAGAG | -0.11 |
| TCCACAAA | -0.249 |
| ACAGCGGG | 0.175 |
| AGGTTACG | 0.115 |
| GCCAGCCA | -0.077 |
| CACTGTAA | -0.144 |
| GGGCATTA | -0.00931 |
| CTATCTTC | -0.236 |
| TGACGCCA | 0.0219 |

Sample 3 — technique: RNA Bind-n-Seq; molecule type: RNA; matrix: in vitro; concentration: 200 nM; setting: whole 134-nt RNA, ends assumed; added: 150 mM LiCl; reference: input library; reading: higher = stronger binding; all molecules: 7-deaza-guanosine replaces G
Target: Ras GTPase-activating protein-binding protein 1, full length (G3BP1, Homo sapiens, UniProt Q13283)
UniProt Q13283, sequence (whole entry, looked up): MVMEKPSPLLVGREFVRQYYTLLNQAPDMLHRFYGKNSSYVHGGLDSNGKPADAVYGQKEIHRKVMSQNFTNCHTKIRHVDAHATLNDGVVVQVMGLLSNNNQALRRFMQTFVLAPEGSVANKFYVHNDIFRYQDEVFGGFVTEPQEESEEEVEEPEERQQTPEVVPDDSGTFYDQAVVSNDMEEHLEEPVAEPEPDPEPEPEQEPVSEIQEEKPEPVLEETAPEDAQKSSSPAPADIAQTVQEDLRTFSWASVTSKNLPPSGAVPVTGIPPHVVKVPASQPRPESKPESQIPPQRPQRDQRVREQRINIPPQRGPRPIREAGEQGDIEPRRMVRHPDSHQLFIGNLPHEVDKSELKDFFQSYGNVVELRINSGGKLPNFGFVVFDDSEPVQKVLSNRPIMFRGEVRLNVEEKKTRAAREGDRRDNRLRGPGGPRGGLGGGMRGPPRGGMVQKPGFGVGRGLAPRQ
| Sequence | log2 enrichment |
| --- | --- |
| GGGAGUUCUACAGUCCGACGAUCUAACUUUAGAGGAGGAUCUGAUGGAUAUGGCAGUGGACGUGGAUUUGGGGAUGGCUAUAAUGGGUAUGGAGCAGGACCUGGAGGUGGCAAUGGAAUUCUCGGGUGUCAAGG | -0.158 |
| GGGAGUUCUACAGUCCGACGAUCACCAUGCAGGUGGGCAUCUUUGAAAAGUGGGGCAAGGGGGGGAUAGGGAGGGGGGUAACACUUUGGGAACAGGUGGUCCCAGGUCGUUUCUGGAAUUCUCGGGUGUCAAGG | 0.399 |
| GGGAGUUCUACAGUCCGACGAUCCACAGACAACACGCACCCACACAGACACAGAGGGAAGGGGUUGGGAUGGGGACAGGGUGCACAGCAGGGCGGGGUACGACCCCAGCCCCUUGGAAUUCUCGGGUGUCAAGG | 1.34 |
| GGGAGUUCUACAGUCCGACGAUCACCAUGCAGGUGGGCAUCUUUGGGAAGAGGGGCAAGGGGGGGAUAGGGAGGGGGGUAACACUUUGGGAACAGGUGGUCCCAGGUCGUUUCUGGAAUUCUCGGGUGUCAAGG | 0.0794 |
| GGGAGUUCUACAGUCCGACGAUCUGCCAGGCCCACCCCCAGGUGUUCCCGCGCCUGGGGGCCCACCCCUGUCCACCGGACCUAUAGUGGACCUGCUCCAGUACAGCCAGAAGGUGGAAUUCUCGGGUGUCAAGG | 0.165 |
| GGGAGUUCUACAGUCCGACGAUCGCAGGAAGUAAAUACAAAUGGAAAUGCUUCGGAUAGUGGCAGGGGUGGGGGUUGCUAAGGAAAGGGUGGGAUGGGAGUGGGUAAAGAGUUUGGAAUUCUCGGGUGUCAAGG | -0.371 |
| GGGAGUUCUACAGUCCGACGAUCAGUCCUGUGCUACACAUCGUAUGUACCGAAUCGGGAAAAGGAAAAGGGGAAAAGGGGAAAGUAUUAUGUUACGCCGUUCGGAUCUGCACUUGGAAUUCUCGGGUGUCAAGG | -0.563 |
| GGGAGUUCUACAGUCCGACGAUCAGUCCUGUGCUACACAUCGUAUGUACCGAAUCGGGGUUUGGGGUUUGGGGUUUGGGGAAAGUAUUAUGUUACGCCGUUCGGAUCUGCACUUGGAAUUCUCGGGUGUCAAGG | -0.55 |

Sample 4 — target: CCND3, cyclin fold, Cln2 fusion (human); technique: yeast growth competition, sequencing; matrix: yeast; setting: weak parent motif; reference: not given; reading: higher = stronger binding
Parent: CDC25A docking peptide (human); PPHRRRLLFACSP
| Substitution | normalised enrichment score |
| --- | --- |
| PPHRRRLLFACAP [S12A] | 0.153 |
| PPHRRRLLFACSN [P13N] | 0.151 |
| PPHRRRLLFAYSP [C11Y] | 0.0892 |
| PCHRRRLLFACSP [P2C] | 0.221 |
| PPHRARLLFACSP [R5A] | 0.121 |
| PPHERRLLFACSP [R4E] | 0.0535 |
| PPHRRRLLFACSL [P13L] | 0.117 |
| PPHRRRLLFACSD [P13D] | 0.28 |
| PPHRRRLLFACCP [S12C] | 0.151 |
| PPHRNRLLFACSP [R5N] | 0.00832 |
| PPHRKRLLFACSP [R5K] | 0.385 |
| PGHRRRLLFACSP [P2G] | 0.162 |

Sample 5 — technique: protein-binding microarray; molecule type: double-stranded DNA, one strand shown; matrix: in vitro; concentration: 250 nM; setting: 60-bp whole probe; added: salmon DNA 0.4 mg/ml; reference: random background probes; reading: higher = stronger binding; constant ends, left off below: GCCTAGCAC … GTCTTGATTCGCTTGACGCTGCTG
Target: Interferon regulatory factor 7, full length, phosphomimetic (IRF7, Homo sapiens, UniProt Q92985, residues 1-503, S101K/S471D/S472D/S475D/S476D/S477D/S483D/S484D/S487D)
UniProt Q92985, sequence (whole entry, unmodified, looked up): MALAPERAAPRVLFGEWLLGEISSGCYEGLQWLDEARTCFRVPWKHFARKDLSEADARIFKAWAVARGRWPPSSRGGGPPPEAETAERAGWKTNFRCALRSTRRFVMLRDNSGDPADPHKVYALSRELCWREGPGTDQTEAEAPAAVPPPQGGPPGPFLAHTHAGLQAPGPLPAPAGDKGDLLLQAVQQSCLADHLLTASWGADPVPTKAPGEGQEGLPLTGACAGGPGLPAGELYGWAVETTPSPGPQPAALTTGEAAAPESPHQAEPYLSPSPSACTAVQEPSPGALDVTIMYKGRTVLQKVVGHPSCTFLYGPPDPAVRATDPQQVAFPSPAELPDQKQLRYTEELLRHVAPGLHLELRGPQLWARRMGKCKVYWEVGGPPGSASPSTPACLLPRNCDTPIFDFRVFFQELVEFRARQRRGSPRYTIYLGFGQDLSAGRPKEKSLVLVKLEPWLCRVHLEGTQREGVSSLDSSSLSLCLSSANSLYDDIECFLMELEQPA
| Sequence | log fluorescence [z-score] |
| --- | --- |
| TCAAGTTTTAATAACACACTGTGCTAG | 0.104 |
| GACGGTCTTCTTATCCTGACGTGCTAG | 0.181 |
| TCCTTCCACCATCTGATCAGGTGCTAG | 1.15 |
| TCATGTATGGATGTGTTACTGTGCTAG | 0.106 |
| TCAGATCTCAGTCTCGATTAGTGCTAG | 1.42 |
| GACGAGCTGGGGTTTCGAGACGTGCTA | 1.2 |
| TTAGGACTGCTAATCCTTTAGTGCTAG | -0.176 |
| GCCGGTTTCCTTTTCCTGACGTGCTAG | 7.55 |
| TCATGACTGGAGTCTGGAACTGTGCTA | -0.715 |
| GCCGGACTGGGGTATCGGGACGTGCTA | -0.674 |
| GACGATCTCAGACTCGAGACGTGCTAG | 0.152 |
| GAGGGTATCCTTCTCCTGACGTGCTAG | -0.154 |
| TTAGATTTCGGTCTCGGTTAGTGCTAG | 2.99 |
| GACGGTATCGGTATCGAGACGTGCTAG | 1.15 |
| GACGGACTGGGGTATGGGGACGTGCTA | -0.575 |
| TCATTTTTTTTTCTACTACTGTGCTAG | 1.17 |

For quick reference, copied from above (sample 1):
| Sequence | RBNS enrichment (R) |
| --- | --- |
| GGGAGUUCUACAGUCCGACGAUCAAAAGGAAGACGAAGAGUUUGGAGCACCUCUCCCUAGCAUCCUCUCAGCUGGAGAGGCAGCAUUGGAUCCCCAUGCCGCACACGGGGAUGGGAUGGGAGCAGAAGCCCAUUGGAAUUCUCGGGUGCCAA | 0.288 |
| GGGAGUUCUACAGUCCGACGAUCGUUUUAACGAUUUGUUUCUCCUGCUCCUCUUCUGUCAGACCUGACCCCACACAAACCUGUCCCCUCGGUUGUGUUGAAGUCCCCUGGACAGUGGGCAGGGGUGGCAGAGGUGGAAUUCUCGGGUGCCAA | 0.283 |
| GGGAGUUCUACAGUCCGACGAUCCCGGCCUUCUCUUCCGACAGGAUGCACACUUGUGGACCACAACCCUAAGGUCUUGUGCCAGCAUCUACCCACACCUGGUUCUGUUCACUGUGGUCUGCCCACACCUGUCUUGGAAUUCUCGGGUGCCAA | 0.919 |
| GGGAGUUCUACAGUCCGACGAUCAGUCUGAGUUUACCGUCUGAAUGUAAAGUUCCGUGUUGUCCGCUCACGACGGAAGUGAAGAAGAUACUGCAUUCAAGUGUUUUUUGUAAAAGUUUGUCAUGGUGAAUAACUGGAAUUCUCGGGUGCCAA | 0.483 |
| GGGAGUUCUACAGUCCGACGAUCCAUGCCUGGGAAGAGGUCCUCAGUGUGAGUUGGGGUCAAACUUGGGCUCCAAGCUGCUUGAGGGGGUCAACCUUGGACCAAAGUUGCCUUAAGCCCCAAGUAUAAAAGAGUGGAAUUCUCGGGUGCCAA | 0.411 |
| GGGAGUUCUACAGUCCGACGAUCGGUUUUUAAAAUAAGGUUUUCUAGUUUUGAGAGUGUGCACUUCACACAGGGGAAUGGGGUUACUUCUGUCUGAUCCUGGGCCUUUCUUUCAUCCCAAAUGACAAGGAAUGUGGAAUUCUCGGGUGCCAA | 0.612 |
| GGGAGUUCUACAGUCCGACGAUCGUUGGGUGAAACAGAUUGUCCUAUCACAAAGCAGAAUUCAACAAAGUUAAAAUUUAAGAUAAGGUUUAAAAAGCUUUAUUCCUGUUUACAAUUUGGGAUGAGAAGCAGGCUGGAAUUCUCGGGUGCCAA | 1.17 |
| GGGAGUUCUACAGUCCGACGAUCGCUGGAAAUUCAUCACAACCUGAGGCCCAGGAUCUGCUCUGUGCCGGUCCUCUGGGCAGUGUGGGGUGCAGAAUGGGGUGCCUAGGCCUGAGCGUUGCCUGGAGCCUAGGUGGAAUUCUCGGGUGCCAA | 0.333 |
